Literature values, collected from citations in different studies.
Protocols differ between the studies behind these lines.

SMILES | test system | conditions | quantity | value
N#Cc1cccc(-c2ccc3ncc(-c4cc(F)cc(F)c4)c(N4CCC(N)CC4)c3c2)c1O | healthy human | dose not given | terminal half-life | 22 to 29 h
CC1(C)CC[C@]2(NC(=O)C(C)(F)F)CC[C@]3(C)[C@H](C(=O)C=C4[C@@]5(C)C=C(C#N)C(=O)C(C)(C)[C@@H]5CC[C@]43C)[C@@H]2C1 | human, plasma |  | terminal half-life | 57 h
CNS(=O)(=O)Nc1nccc(Cc2c(C)c3ccc(Oc4ncccn4)cc3oc2=O)c1F | human | oral | terminal half-life | ~60 h
CCOc1c([C@H](C)n2nc(C)c3c(N)ncnc32)cc(Cl)c(F)c1[C@@H]1CNC(=O)C1 | human | oral, fasted, steady state, geometric mean | terminal half-life | ~10 h
Cc1cc(C)c(CNC(=O)c2cc(Cl)c3c(c2C)O[C@@](C)([C@H]2CC[C@H](N(C)C)CC2)O3)c(=O)[nH]1 | healthy human, plasma |  | terminal half-life | ~20 h
Cn1ncnc1[C@H]1c2n[nH]c(=O)c3cc(F)cc(c23)N[C@@H]1c1ccc(F)cc1 | human, plasma |  | terminal half-life | ~90 h
C[C@@H]1CCN(C(=O)CC#N)C[C@@H]1N(C)c1ncnc2[nH]ccc12 | human healthy adult |  | terminal t1/2 | ~2.5 h
Cc1cc(C)c(CNC(=O)c2cc(Cl)c3c(c2C)O[C@@](C)([C@H]2CC[C@H](N(C)C)CC2)O3)c(=O)[nH]1 | healthy human, fasted | oral, dose not given, single dose | terminal half-life | ~20 h
Cc1cccc(F)c1N1CCC(N2Cc3cn(CC(C)(F)F)nc3N(Cc3ccccc3C(F)(F)F)C2=O)CC1 | human | 2.5 mg and above, single dose | terminal half-life | 30 to 46 h
CO[C@]1(C(=O)N[C@@H](C)c2ccc(-n3cc(F)cn3)nc2)CC[C@H](c2nc(C)cc(Nc3cc(C)[nH]n3)n2)CC1 | human | added: itraconazole | terminal half-life | 28.3 h
